Results from different studies.
Every numbered part comes from another study and shows a few of its results, in no order. Substitutions count along the parent as printed.
UniProt O24409, sequence (whole entry, looked up): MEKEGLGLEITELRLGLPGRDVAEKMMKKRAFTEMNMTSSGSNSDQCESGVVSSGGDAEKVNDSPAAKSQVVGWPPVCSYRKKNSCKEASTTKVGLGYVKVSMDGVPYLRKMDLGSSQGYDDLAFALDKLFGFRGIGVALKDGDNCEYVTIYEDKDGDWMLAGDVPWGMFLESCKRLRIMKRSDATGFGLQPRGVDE
UniProt Q9M1R4, sequence (whole entry, looked up): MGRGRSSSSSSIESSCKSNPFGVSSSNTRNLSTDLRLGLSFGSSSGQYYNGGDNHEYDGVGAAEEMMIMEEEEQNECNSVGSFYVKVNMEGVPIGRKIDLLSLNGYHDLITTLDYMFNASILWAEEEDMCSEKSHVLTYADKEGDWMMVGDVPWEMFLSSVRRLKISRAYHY
UniProt Q9C5W9, sequence (whole entry, looked up): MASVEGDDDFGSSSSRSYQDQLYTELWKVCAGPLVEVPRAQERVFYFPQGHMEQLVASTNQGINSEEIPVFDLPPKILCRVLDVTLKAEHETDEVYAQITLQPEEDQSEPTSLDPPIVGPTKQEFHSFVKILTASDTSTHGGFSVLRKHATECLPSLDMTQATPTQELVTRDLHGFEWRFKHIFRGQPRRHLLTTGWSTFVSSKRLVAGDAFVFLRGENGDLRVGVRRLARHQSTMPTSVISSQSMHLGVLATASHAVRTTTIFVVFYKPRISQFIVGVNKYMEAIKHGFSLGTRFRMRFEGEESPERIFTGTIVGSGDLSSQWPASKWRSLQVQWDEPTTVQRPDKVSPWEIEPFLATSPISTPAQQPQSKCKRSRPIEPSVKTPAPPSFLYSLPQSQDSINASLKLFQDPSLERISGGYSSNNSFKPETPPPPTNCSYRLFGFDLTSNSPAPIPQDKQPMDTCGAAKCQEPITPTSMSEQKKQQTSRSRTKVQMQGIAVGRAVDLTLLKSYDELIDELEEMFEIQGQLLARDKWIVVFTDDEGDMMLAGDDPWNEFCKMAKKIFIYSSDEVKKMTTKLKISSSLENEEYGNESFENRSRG
UniProt Q9LQE8, sequence (whole entry, looked up): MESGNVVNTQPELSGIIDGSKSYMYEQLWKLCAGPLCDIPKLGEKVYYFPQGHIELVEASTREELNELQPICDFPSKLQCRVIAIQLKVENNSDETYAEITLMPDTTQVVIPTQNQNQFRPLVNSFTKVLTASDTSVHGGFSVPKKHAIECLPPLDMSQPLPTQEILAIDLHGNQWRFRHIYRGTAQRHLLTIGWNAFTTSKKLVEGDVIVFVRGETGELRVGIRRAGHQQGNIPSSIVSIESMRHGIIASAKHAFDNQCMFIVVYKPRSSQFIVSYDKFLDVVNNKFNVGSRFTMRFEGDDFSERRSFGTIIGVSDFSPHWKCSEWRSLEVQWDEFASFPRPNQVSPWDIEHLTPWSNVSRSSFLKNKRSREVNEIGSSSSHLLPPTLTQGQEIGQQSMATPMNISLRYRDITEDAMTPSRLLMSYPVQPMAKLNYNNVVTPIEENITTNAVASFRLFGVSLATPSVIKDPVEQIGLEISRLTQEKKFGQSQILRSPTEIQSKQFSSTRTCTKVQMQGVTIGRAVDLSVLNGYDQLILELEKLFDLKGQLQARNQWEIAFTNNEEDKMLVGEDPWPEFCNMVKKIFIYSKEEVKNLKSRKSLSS
UniProt Q8RYC6, sequence (whole entry, looked up): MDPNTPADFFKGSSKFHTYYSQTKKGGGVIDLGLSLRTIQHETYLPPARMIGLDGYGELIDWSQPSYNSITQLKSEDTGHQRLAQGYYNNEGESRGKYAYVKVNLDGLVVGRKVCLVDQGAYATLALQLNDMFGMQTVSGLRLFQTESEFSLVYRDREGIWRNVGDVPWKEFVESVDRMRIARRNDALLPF
UniProt O24408, sequence (whole entry, looked up): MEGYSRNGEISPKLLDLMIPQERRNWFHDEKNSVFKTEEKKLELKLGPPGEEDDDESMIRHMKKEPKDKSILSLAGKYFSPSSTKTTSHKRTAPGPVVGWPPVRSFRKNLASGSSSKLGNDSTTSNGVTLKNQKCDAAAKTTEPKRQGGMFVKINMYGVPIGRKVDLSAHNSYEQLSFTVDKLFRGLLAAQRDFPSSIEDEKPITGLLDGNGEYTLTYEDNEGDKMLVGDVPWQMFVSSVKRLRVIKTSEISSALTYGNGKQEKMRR

Block 1
Molecule: PhoQ, residues 284 288 289 292 302 303 SLKLQV
Technique: Sort-seq
Measured: YFP reporter
Sample: E. coli
Setting: PhoQ-PhoP variant library
Together with: 10 µM Mg2+
Relative to: high Mg2+ state
Direction: higher = stronger signaling
Quantity: fold induction
PhoP, residues 12 14 15 18 19 TPWTL (Escherichia coli, UniProt P23836): 1.25
PhoP, residues 12 14 15 18 19 NFFVT (Escherichia coli, UniProt P23836): 19.3
PhoP, residues 12 14 15 18 19 LHHYF (Escherichia coli, UniProt P23836): 11.2

Block 2
Target: CCND1, cyclin fold, Cln2 fusion (human)
Technique: yeast growth competition, sequencing
Sample: yeast
Setting: strong parent motif
Relative to: not given
Direction: higher = stronger binding
Quantity: normalised enrichment score
Parent: INSM1 docking peptide (human); PKAIRKLHFEDEV
PKAIRDLHFEDEV [K6D]: 0.72
PKAIRKLLFEDEV [H8L]: 5.92
PKAIRKLHQEDEV [F9Q]: 0.035
PKAIRKLHFEHEV [D11H]: 2.9
PKQIRKLHFEDEV [A3Q]: 0.0909
PKAIRKLHFEFEV [D11F]: 3.14
PKWIRKLHFEDEV [A3W]: -0.231
PKAIRKRHFEDEV [L7R]: 0.00628
PKAIRKLHHEDEV [F9H]: 0.128
PKAIRKLHFFDEV [E10F]: 2.71
PKAIQKLHFEDEV [R5Q]: 1.63
PKAIRKLHMEDEV [F9M]: 0.673
PKAKRKLHFEDEV [I4K]: 4.06
PKAIRKLHFMDEV [E10M]: 2.84
PKAIRKLHLEDEV [F9L]: 0.898
PKAIRFLHFEDEV [K6F]: 2.67
PKAILKLHFEDEV [R5L]: 1.37
PKAIRKLHFEDLV [E12L]: 3.78
PDAIRKLHFEDEV [K2D]: 2.1
PFAIRKLHFEDEV [K2F]: 3.25
PKAIHKLHFEDEV [R5H]: 0.23

Block 3
Target: Interferon regulatory factor 5, full length, phosphomimetic (IRF5, Homo sapiens, UniProt Q13568-2, residues 1-514, K96S/S451D/S453D/S456D/S462D)
Technique: protein-binding microarray
Molecule type: double-stranded DNA, one strand shown
Sample: in vitro
Concentration: 250 nM
Setting: 60-bp whole probe
Together with: salmon DNA 0.4 mg/ml
Relative to: random background probes
Direction: higher = stronger binding
Quantity: log fluorescence
Shared flanks, not repeated: GCCTAGCAC … GTCTTGATTCGCTTGACGCTGCTG
TTAGGACTCCTTCTCCTTTAGTGCTAG: -0.304 z-score
GTAGGTCTCCTACTGCTTTAGTGCTAG: -0.67 z-score
TTAGGTTCCGACTATCGGTTAGTGCTA: 6.29 z-score
GACGGACTGCTACTTCTGACGTGCTAG: -0.418 z-score
TTTGGTATCGACTTTCGGTTAGTGCTA: 10.6 z-score
GACGATCTCAGAATGGAGACGTGCTAG: -0.247 z-score
TCATTTACCCATCTCCAACTGTGCTAG: 0.4 z-score
GACGGACTGGGGGTTCGGGACGTGCTA: -0.394 z-score
GACGCTTTCCTTTCCCTGACGTGCTAG: 1.42 z-score
GACGGTTTACTTTCCCTGACGTGCTAG: 1.25 z-score
GACGGTATGGACTTTCGGGACGTGCTA: 4.09 z-score
GACGATCTCAGTCTCAAGACGTGCTAG: -0.339 z-score
GACGGTCTCGATTTCGGGACGTGCTAG: 1.42 z-score
TCATTTCTCTGTTCTAGACTGTGCTAG: 1.48 z-score
TCATTTCTGAATGCTCCCACTGTGCTA: 0.805 z-score
TTAGGTATCGGATATCGGTTAGTGCTA: 4.86 z-score
GACGGTCTCCGTATCGGGACGTGCTAG: 0.5 z-score
GGAGGAGCGGGACTGCCACCGTGCTAG: -0.911 z-score
GACGGACTGGGGTTTCGGCACGTGCTA: 1.39 z-score
GACGGTATCGGTCTCGGGTCGTGCTAG: 5.76 z-score
TTAGATATCGGGTATAGATTAGTGCTA: 2.52 z-score
ATAGGTATCGGTATCGGTTAGTGCTAG: 9.46 z-score
TTAGGACAGCTTCTCCTTTAGTGCTAG: -0.456 z-score
GACGGTATCGACACTTGGGACGTGCTA: 1.53 z-score
TCACTCTTCTGCTTCCTACTGTGCTAG: 0.72 z-score

Block 4
Molecule: B1 (IAA11)
Technique: two-hybrid
Setting: weak activation fusion
Direction: higher = firmer interaction
Quantity: positive tests
B1: IAA11 (Arabidopsis thaliana, UniProt Q38829); chain MEGGSASGSASALSNDENLVVSCEDSSSPIGNELELGLTLSLGRKGYRDCRVYADDSSSSSSSSSLSRASVIAGIKRTADSMAATSGQVVGWPPIRTYRMNSMVNQAKASATEDPNLEISQAVNKNRSDSTKMRNSMFVKVTMDGIPIGRKIDLNAHKCYESLSNTLEEMFLKPKLGSRTLETDGHMETPVKILPDGSSGLVLTYEDKEGDWMLVGDVPWGMFIGSVRRLRIMKTSEATGKAQMIL
ARF18 482-602 (Arabidopsis thaliana, UniProt Q9C5W9); relative to: out of 4 tests: 1
IAA19 (Arabidopsis thaliana, UniProt O24409); relative to: out of 4 tests: 2
IAA18 (Arabidopsis thaliana, UniProt O24408); relative to: out of 4 tests: 1
IAA30 (Arabidopsis thaliana, UniProt Q9M1R4); relative to: out of 3 tests: 2
ARF14 497-605 (Arabidopsis thaliana, UniProt Q9LQE8); relative to: out of 2 tests: 0
IAA32 (Arabidopsis thaliana, UniProt Q8RYC6); relative to: out of 4 tests: 0
IAA13 (Arabidopsis thaliana, UniProt Q38831); relative to: out of 2 tests: 0

Block 5
Target: RNA binding protein fox-1 homolog 2, RRM domain, GST-SBP tag (RBFOX2, Homo sapiens, UniProt O43251-10, residues 100-194)
Technique: RNA Bind-n-Seq
Molecule type: RNA
Sample: in vitro
Concentration: 365 nM
Setting: natural RNA segment, single round, ends assumed
Relative to: no-protein control
Direction: higher = stronger binding
Quantity: RBNS enrichment (R)
Construct (chain): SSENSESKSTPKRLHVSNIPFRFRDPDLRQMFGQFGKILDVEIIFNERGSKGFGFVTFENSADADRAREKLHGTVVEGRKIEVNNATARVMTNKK
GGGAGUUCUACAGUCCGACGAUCCUGAUUUGCUCUCAGCUGAUGUGUCCUGUACACAGUGGGAAGAUUUUAGUUCACACUUAGUCUAACUCCCCCAUUUUACAGAUUUCUCACUAUAUAUAUUUCUAGAAGGGUGGAAUUCUCGGGUGCCAA: 0.511
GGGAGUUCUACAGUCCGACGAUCAAUGUUUAAUAUUUAAACAAAAUAUUUAUAUCUACACAAUAAAGUUAAUCAACCUUCAAACCAGUCUUGAAGCCAGCUACUUGUUUCUUCAUCUCAGACUCCUAGGGGAAUGGAAUUCUCGGGUGCCAA: 0.653
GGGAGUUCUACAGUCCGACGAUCCACCCAAAAGUCAAAAGGUGCCUGUGAGGCAGGGGCGGAGUGAUACAACUUCAAGUGCAUGCUCUCUGCAGCCAGCCCAGCCCAGCUGGUGGGAAGCGUCUGUCCGUUUAUGGAAUUCUCGGGUGCCAA: 3.06
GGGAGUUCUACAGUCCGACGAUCGGGAUACCUAAGGACCAAUGUUUUCUUCCUCUUAGACACAAAUAAAGAUGCUGAGAAAAAGCAACAACCUCGGAGUGGAUUCUCAAUCAUGGUCUCCAUUGUCUUCCUCCUGGAAUUCUCGGGUGCCAA: 0.373
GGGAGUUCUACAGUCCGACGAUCUCUCAAGACUGAGCACUUCACUAAAUGGUAGAUUUUACUGUUAAAGACCCUACAAUAAGAUUGUUUUAUCUGUACAUUUUUUCAGAUAUUUAACUGUAUAAAAAUGUUCAUGGAAUUCUCGGGUGCCAA: 0.496
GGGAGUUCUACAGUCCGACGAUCUUGUAGGCAGCGUGUGGCGUCUCAGAGGCCAGAGCGGCACUAGGGGGCUGAUUUUAUUACCAGGUUACCCUGUUCUAGAUCAGGAGGGUCUAUUUCCUGUUGCCGCUCUGUGGAAUUCUCGGGUGCCAA: 0.4
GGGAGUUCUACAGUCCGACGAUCCAAGACAUCCCUUUAGGUGACAAGACUCUAUAACAGUGGUUACCUGUCUCCAUGUUGACACUUCAUCCUAGAUUUAAGGAGAGGCAUCAAUUUUUUUUUUUUUUUGCCUCUGGAAUUCUCGGGUGCCAA: 0.287
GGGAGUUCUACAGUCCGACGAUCCAGUUAUGUUGUUUAUGGCUCAAGAUGUCAUUAGAAAUACUGCAGUGGUGUAUUCACAGCUGCUCCUUCUCUGAAUGAAAGAGUGUAGGGACACCUGCCACCAUGGCCAGUGGAAUUCUCGGGUGCCAA: 0.367
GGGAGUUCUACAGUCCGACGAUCCUUUCAUUUUAAAGGUUAUUUGCCCUCAAUUAUAUAAUUUCAGUGUUAUAAAGUUUAGCUUAAACUCCUUUGCAAUAAUUUAUUUGACAGAACUCCAUUCUAAAACCAUGUGGAAUUCUCGGGUGCCAA: 0.481
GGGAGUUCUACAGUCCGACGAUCGUAAGAUAGUUAAGUUAUUCAAAGAGUGUUACCCUCCUUGCAAGAGUAACUGAAGCACAUUGGAAAGAUUCUCAAUUUUGUGUUUCCUGUAAAAACAGUGCUCUCUGCUGUGGAAUUCUCGGGUGCCAA: 0.23
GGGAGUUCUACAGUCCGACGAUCAGUGGUUCUUUGAAGCUUAGUGAGGCGGAGGCUGCCAGUGUUGGUACCUGUGGAUUUUCCAAUAGUGAGGGUUAGCUCUGCCUCCAGGGCCCGCUAAGUUCUGCUGAGCAUGGAAUUCUCGGGUGCCAA: 0.971
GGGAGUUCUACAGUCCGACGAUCAAGUUAUACACAUUGAAGACCCUAAAAAUCCCAGUCCAUCAUUCAGCUUACCUCUGCGAACUUCUAUCUGGUAUUGAAUCAGUUUCAGAAACACAGACAGAUCCAAGGAAUGGAAUUCUCGGGUGCCAA: 0.263
